Experimental data gathered from unrelated publications.
A part holds a random share of what one study measured. Changes are numbered by the printed parent chain.

Series 1
Target: Sal-like protein 4, full length isoform B (SALL4, Homo sapiens, UniProt Q9UJQ4-2, residues 1-616)
Method: universal PBM
Molecule type: double-stranded DNA, one strand shown
Sample: in vitro
Concentration: not given
Setting: 8-mer, flanks averaged, mean of replicates
Direction: higher = stronger binding
Measurement: E-score
Residues (chain): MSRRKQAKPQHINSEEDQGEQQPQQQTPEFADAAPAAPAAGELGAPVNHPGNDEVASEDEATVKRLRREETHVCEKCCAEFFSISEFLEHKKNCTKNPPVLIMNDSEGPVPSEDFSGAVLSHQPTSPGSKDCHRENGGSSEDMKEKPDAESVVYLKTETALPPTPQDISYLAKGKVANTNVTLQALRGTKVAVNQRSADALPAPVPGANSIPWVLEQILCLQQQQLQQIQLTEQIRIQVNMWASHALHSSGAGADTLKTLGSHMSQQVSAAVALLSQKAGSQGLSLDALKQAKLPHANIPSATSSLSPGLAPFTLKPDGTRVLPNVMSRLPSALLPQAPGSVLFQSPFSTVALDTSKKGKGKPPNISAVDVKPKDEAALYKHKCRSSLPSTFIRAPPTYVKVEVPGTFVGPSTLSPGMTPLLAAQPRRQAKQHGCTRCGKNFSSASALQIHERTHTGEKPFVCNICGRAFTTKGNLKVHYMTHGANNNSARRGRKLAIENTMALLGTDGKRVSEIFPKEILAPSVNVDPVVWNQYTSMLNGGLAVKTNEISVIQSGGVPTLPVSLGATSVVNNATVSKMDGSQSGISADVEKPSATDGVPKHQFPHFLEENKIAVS
CCGTTACG: -0.063
CTAGAGGA: -0.0656
CCCCCGAA: -0.00517
CGCAGTTC: -0.161
ACCAAGCC: -0.059
CGGTGTCA: -0.246
GGATCCTA: -0.0903
TCCTGCAA: 0.0493
GAGGCTCC: -0.237
CACCGTGG: -0.343
CGCTATAC: 0.0509
ATCAGCCA: -0.205
ACACAATG: 0.216
GCACTTAC: -0.0273
ACACCTAA: 0.149
TGTCTCAA: 0.0917
ATGATGAG: 0.175
CAAGACTC: -0.125
AAGACAAC: 0.132
CTCATCTC: -0.0353
ACGTAGGG: -0.145
AATGCAGT: -0.00258
AATGCAAT: 0.267
GTGGTCAA: -0.0441
CCCGTCAA: -0.122

Series 2
Target: Histone acetyltransferase KAT6A, winged helix 1, GST fusion (KAT6A, Homo sapiens, UniProt Q92794, residues 1-85)
Method: protein binding microarray
Molecule type: double-stranded DNA, one strand shown
Sample: in vitro
Concentration: not given
Setting: 8-mer, flanks averaged, mean of 2 arrays, mostly near background
Baseline: not given
Direction: higher = stronger binding
Measurement: E-score
Residues (chain): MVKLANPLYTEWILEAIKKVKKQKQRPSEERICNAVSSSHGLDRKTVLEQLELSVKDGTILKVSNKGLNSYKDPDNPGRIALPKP
ACTTGGCT: -0.242
CACATGCA: -0.087
AGCAAGAG: -0.294
GAATTTAC: 0.00173
AACGGGAG: 0.0671
CTGGCGGA: -0.0235
AAAACGGG: 0.23
ACAGGTGA: -0.126
ACAGGAAG: -0.0869
ATCCTCAT: -0.232
GTTTCGGA: -0.189
GGTCGTCA: 0.00826
CATCTGCG: 0.127
ATTCGTTA: -0.196
GCTAACTA: 0.036
AAACCCTT: 0.0807
CCCGAATA: 0.0224
CCCGGAAA: 0.199
ACACCCAT: -0.184
AAAAGTGA: -0.0685
ATCGCTAA: -0.0238
ATCAAATC: -0.287
GTATCTAA: 0.00995
GGAATAAA: -0.088
ACTGCACG: 0.0684

Series 3
Target: CCND3, cyclin fold, Cln2 fusion (human)
Method: yeast growth competition, sequencing
Sample: yeast
Setting: weak parent motif
Baseline: not given
Direction: higher = stronger binding
Measurement: normalised enrichment score
Starting sequence: RB1 docking peptide (human); PKPLKKLRFDIEG
K2N: 0.164
R8S: 0.0846
K5I: 0.141
L7M: 0.152
L7T: 0.108
E12W: 0.111
K6H: 0.18
K6C: 0.0463
R8W: 0.135
R8T: 0.202
P3G: 0.114
K6I: 0.15
R8A: 0.0797
P3H: 0.00234
K5Y: 0.085
K2V: 0.179

Series 4
Target: Interferon regulatory factor 7, full length, phosphomimetic (IRF7, Homo sapiens, UniProt Q92985, residues 1-503, S101K/S471D/S472D/S475D/S476D/S477D/S483D/S484D/S487D)
Sequence of UniProt Q92985 (whole entry, unmodified, looked up): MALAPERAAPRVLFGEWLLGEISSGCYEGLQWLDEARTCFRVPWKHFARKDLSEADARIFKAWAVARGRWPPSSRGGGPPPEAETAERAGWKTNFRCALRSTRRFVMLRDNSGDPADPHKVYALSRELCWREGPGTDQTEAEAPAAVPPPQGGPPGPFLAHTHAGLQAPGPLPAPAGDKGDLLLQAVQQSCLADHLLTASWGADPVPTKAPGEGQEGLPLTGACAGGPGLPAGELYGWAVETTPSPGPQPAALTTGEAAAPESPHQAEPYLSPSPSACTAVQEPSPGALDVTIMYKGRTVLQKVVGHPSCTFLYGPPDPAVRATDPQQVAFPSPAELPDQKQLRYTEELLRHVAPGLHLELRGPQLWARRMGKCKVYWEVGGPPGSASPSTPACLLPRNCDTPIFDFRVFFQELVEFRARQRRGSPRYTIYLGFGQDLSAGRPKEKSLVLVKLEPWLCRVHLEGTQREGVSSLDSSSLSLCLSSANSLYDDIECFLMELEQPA
Method: protein-binding microarray
Molecule type: double-stranded DNA, one strand shown
Sample: in vitro
Concentration: 250 nM
Setting: 60-bp whole probe
With: salmon DNA 0.4 mg/ml
Baseline: random background probes
Direction: higher = stronger binding
Measurement: log fluorescence
Shared flanks, not repeated: GCCTAGCAC … GTCTTGATTCGCTTGACGCTGCTG
TTAGGTTTCGACACTGAGTTAGTGCTA: 3.67 z-score
ATTTTTTTCTAATTGAAATGGTGCTAG: 2.34 z-score
TTAGGTATCGACGTTCGGTTAGTGCTA: 0.467 z-score
TTGGGTTTCCTTTTCCTTTAGTGCTAG: 5.55 z-score
GACGGTATCTGTATCGGGACGTGCTAG: 0.208 z-score
GGAAGCTTCTTTTTTATTCTGTGCTAG: 0.0518 z-score
TCATTTCTCCTATTTAAACTGTGCTAG: 2.66 z-score
GACGATATCAGTATCGTGACGTGCTAG: -0.159 z-score
TCAGTCCTGGCTTTGACACTGTGCTAG: -0.412 z-score
GACGGTATCCTTATCATGACGTGCTAG: -0.107 z-score
TTAAATATCAGTTTCGATTAGTGCTAG: 9.61 z-score
TTAGATATCAGCATCGATTAGTGCTAG: 0.0254 z-score
TTAGATATCAGACTGTATTAGTGCTAG: 0.0941 z-score
GACGGTTTCGGTTTAGGGACGTGCTAG: 14.5 z-score
TTAGGTATCCTTTACCTTTAGTGCTAG: 0.382 z-score
GACGATTTCAGTTTAGAGACGTGCTAG: 0.893 z-score
GAAGGTTTCGGGTATCGGGACGTGCTA: 7.28 z-score
TTAGGCATCCTTCTCCTTTAGTGCTAG: -0.342 z-score
TTAGCTTTCCTACTGCTTTAGTGCTAG: 0.79 z-score

Series 5
Target: RING finger protein unkempt homolog, zinc fingers 1-6, GST-SBP tag (UNK, Homo sapiens, UniProt Q9C0B0, residues 30-357)
Sequence of UniProt Q9C0B0 (30-357, looked up): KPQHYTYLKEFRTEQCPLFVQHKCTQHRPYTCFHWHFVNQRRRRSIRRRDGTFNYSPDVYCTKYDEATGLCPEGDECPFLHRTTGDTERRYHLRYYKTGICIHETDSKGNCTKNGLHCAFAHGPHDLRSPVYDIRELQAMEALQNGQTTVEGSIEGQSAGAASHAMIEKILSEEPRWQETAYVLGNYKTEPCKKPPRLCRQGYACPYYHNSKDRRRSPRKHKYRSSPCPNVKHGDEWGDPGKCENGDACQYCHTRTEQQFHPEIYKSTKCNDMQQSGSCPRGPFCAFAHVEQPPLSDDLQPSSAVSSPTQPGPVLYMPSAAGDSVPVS
Method: RNA Bind-n-Seq
Molecule type: RNA
Sample: in vitro
Concentration: not given
Setting: RNA with constant flanks, ends assumed
Baseline: input RNA pool
Direction: higher = stronger binding
Measurement: bound/input enrichment
Shared flanks, not repeated: GGGAGUUCUACAGUCCGACGAUC … CAACAGAGGAUUGAGCAUCA
CAUUUGAUGUAUGCGGUCAGAGAAGAAGUGGAGGUCCUCAAAGAGCAAAUCAAAGAACUAACCGAGAAAAAUUCCCAGCUGGAGCAGGAGAACAAUCUGCUGAAGACACUGGCCAGUCCU: 0.292 ratio
GCCCGGAAAACUGUGAAAAAAAUACUUAGUGACAUUGGGUUGGAAUACUGUAAAGAACAUACCGAAGAUUUUAAACAAUUUGAACCUAAUGACUUUUAUUUGAAAAACACUACAUGGGAG: 0.393 ratio
UAUUUUUAUAAUUUUUACUGAUGCUCAGUAACCAUGAAAAACUGUGCACAUUCAUGUACUAACCGAUCUGUACCUAUCUAUCUCUGUACGCAUAUAUACAGUUCACUGUAGAAAACCACA: 3.99 ratio
UCCCAUGACCAAAGGACUCUGAUCACUGGCAUGGCUUCCGGCAGCAUUGUAGCUUUUAAUACCGAUUUUAAUCGGUGGCAUUAUGAGCAUCAGAACAGGUACUGAAGAGAAGCAGCAGAA: 0.128 ratio
UGUAUGGUAACUAAAGGUGCCAGCAUGUUGACUUUAUUACAAUUUGUAUUACUUCCUCUGCCGUUCCUAAUGGACUCAAUCACAGACUCUGGAUAUUUGCACUUAUGUACUUGAUACUGA: 0.188 ratio
GCCACAUCCGGUGAUAUUUGGCCUGGCCUUUCAGCUUAUGAUAAUAGUCCUAGAUCACCCCACCGUCCUUCACCUAUUGCUACACCACCUAGUCAGAGUUCAUCUUGCUCUGAUGCUCCC: 1.37 ratio
GAACGAGAAAUGCAAAACCUCAGUCAACAUGGUAGAAAAAAUAAUUGGCCACCUCUUCCCCGCAAUUUUCCUGUCGGACCUUGUUUCUAUCAGGAUUUUUCUGUAGACAUUCCUGUAGAA: 1.91 ratio

For quick reference, copied from above (series 2):
AAACCCTT: 0.0807
ACAGGAAG: -0.0869
GTATCTAA: 0.00995
AAAACGGG: 0.23
ACAGGTGA: -0.126
AAAAGTGA: -0.0685
ACTTGGCT: -0.242
GCTAACTA: 0.036
GGAATAAA: -0.088
GGTCGTCA: 0.00826
CACATGCA: -0.087
CCCGAATA: 0.0224
GAATTTAC: 0.00173
